Measurements pooled from the literature.
Numbered parts are unrelated; each lists some results of a single study.

Study 1
Target: RNA binding protein fox-1 homolog 2, RRM domain, GST-SBP tag (RBFOX2, Homo sapiens, UniProt O43251-10, residues 100-194)
Method: RNA Bind-n-Seq
Form: RNA
Sample: in vitro
Concentration: 365 nM
Notes: natural RNA segment, single round, ends assumed
Baseline: no-protein control
Reading: higher = stronger binding
Constant ends, left off below: GGGAGUUCUACAGUCCGACGAUC … UGGAAUUCUCGGGUGCCAA
Residues (chain): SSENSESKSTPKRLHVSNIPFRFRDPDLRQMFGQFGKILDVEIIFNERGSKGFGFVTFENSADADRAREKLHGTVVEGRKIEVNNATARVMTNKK
Strand	RBNS enrichment (R)
CCUGUCUCUGGAAAAAAAAAAAAAAAAAAAAGGAAUAGGUAAAAGGGACAGAGGUGAAAUUUUGAGUGACUUGAGUCUCUUGCAGUCCCUGAUUACACAGAACCUUUCUG	0.474
GCCAAGGGCUUGCAUGCAUUAUCUCCUUUAAUCCACAAGCAGCUCUGGCGAGGUGGUAUUAGCCCAUCUUACAGAUGGGAAAACUGAAGUUCUGUGCUAGAGAUUGAGAA	18.1
AUCUUCACUGUUUCACCAUCUAGCUUGCUAAGUCAAAUAUUUAUGAUGAUAAUGAGGUACUGAACCACGAUGGCUGUUGAGGAAUUGGUCCUAAAAGGACAGAUCACUUC	0.34
CCCUGGGUAGCAGACGGCUGCUGCCCUUCUCUGGGCAUGUUCUGAAUGUUUACACUGGUACCUUCUGGUAUCUUCUUUAGAGCCCCCUGCAAGCUGCAACUCUAGGCUUU	0.484
UAUGCUGUUUCCAAAAGGCCAAAUAAACCAGGAUUUUCUCUGGAUGCUUGGAGAAAGAAGAAACCCUAUUCUUGUUUUAGUAUCUUGAUCUCAUUAGUUUAUAGGCGUUG	0.472

Study 2
Target: Interferon regulatory factor 5, full length, phosphomimetic (IRF5, Homo sapiens, UniProt Q13568-2, residues 1-514, K96S/S451D/S453D/S456D/S462D)
Method: protein-binding microarray
Form: double-stranded DNA, one strand shown
Sample: in vitro
Concentration: 250 nM
Notes: 60-bp whole probe
Added: salmon DNA 0.4 mg/ml
Baseline: random background probes
Reading: higher = stronger binding
Constant ends, left off below: GCCTAGCAC … GTCTTGATTCGCTTGACGCTGCTG
Strand	log fluorescence [z-score]
GACGGTAGCGACTATCGGGACGTGCTA	1.3
GACGGTTTCCTGCTCCTGACGTGCTAG	0.29
GGCGATCTCAGTTTCGAGACGTGCTAG	4.68
TCAGATCTCAGTCTCGATTAGTGCTAG	0.62
TTAGGTCTGCTTTTCCTTTAGTGCTAG	0.158

Study 3
Target: RING finger protein unkempt homolog, zinc fingers 1-6, SBP tag (UNK, Homo sapiens, UniProt Q9C0B0, residues 30-357)
UniProt Q9C0B0, sequence (30-357, looked up): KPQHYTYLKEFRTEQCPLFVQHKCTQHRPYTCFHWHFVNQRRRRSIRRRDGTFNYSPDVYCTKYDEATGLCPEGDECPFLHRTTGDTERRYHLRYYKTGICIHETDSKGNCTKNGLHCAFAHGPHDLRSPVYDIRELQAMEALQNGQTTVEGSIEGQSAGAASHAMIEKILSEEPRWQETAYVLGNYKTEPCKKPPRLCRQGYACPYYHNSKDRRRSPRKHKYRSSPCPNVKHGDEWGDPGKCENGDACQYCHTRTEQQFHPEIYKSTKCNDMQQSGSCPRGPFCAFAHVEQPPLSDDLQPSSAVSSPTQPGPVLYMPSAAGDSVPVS
Method: RNA Bind-n-Seq
Form: RNA
Sample: in vitro
Concentration: 100 nM
Notes: RNA with constant flanks, vertebrate orthologous sites, ends assumed
Baseline: input RNA pool
Reading: higher = stronger binding
Constant ends, left off below: GGGAGUUCUACAGUCCGACGAUC … CAACAGAGGAUUGAGCAUCA
Strand	bound/input enrichment [ratio]
CAUCUCUCAUUUUAUAUGUCCAAAAAUGACUUUGAAUUUUAAGCAGUUACUAGUUUUAAUUAGCUCUGCCCUCAUGAAGUGUUACUGUAAUUCACCAUAACCAGAUAUCUGUCUGAAUUU	0.787
CAGCUGACUCACUUAUUGGGAGGGCUGCACAUAUAGCUGUUCUGGAUUCAGAAAUAUUUUUGGAAAAAUUCUUCCUGGUGGCUGCCCUCAAAUAUUUCCAAUAGAAUAAAAAUAUUAUUA	0.542
CUUUUAAUCGAUUAUGUCUGUAAAUGUAUAUUGAGAGAAUUGAAGUAUUUAUAAACAGAGUGAUUUAUUUAAGGAAAAGCUCAUUCCUCUUUCAUAUGGUGGUCUGUGUUAAUUCUCUUU	0.811
UUCAGGCACAACUGACUGGUUCACAGCAUUCCUUACACAGUUAUCUAUCAAAUGCAAGUGUGGUUAAUUUUCAGGAAACAAGCAGGCAGUCAUCUUUAUCCUGUAGCCCUAUUGGAGAUU	1.16
UCUUUGUAUUUCCUUUAUUUCUACCUUCCUUAUUUUUUUUUCUUUUUCUUUUAUUUUUGGUAGUAGUUGUUACCCACGCCAUUUUACGUCUCCUUCACUGAAGGGCUAGAGUUUUAACUU	2.93
CUCUACGGGCCCCGCAAAGUUGAGAUCAUUGAAGAGGAAGCGGAACAAUAAUCUACAUUUGGGUAUUUCUGACUAGGUGUGAAAUAAAUGUUUGUUGAUCAUUUCUUAACCAGAGCUUUA	0.423
UGCUGUUAAUGCACUGUAUACUAGGCAUCUUCUGACCUUAGUGUAAUCUAGGAGAUUUUAUAGUUUUAUUUUAAUGAAGUCUGGAUUGAGGCAAAGCUGGUAGGAGUACGUAGUCUUUUA	2.75

Study 4
Molecule: PhoQ, residues 284 288 289 292 302 303 TYGVAM
Method: Sort-seq
Refers to: YFP reporter
Sample: E. coli
Notes: PhoQ-PhoP variant library
Added: 10 µM Mg2+
Baseline: high Mg2+ state
Reading: higher = stronger signaling
target	fold induction
PhoP, residues 12 14 15 18 19 HHYTI (Escherichia coli, UniProt P23836)	26.7
PhoP, residues 12 14 15 18 19 AYFRS (Escherichia coli, UniProt P23836)	12
PhoP, residues 12 14 15 18 19 SFCSL (Escherichia coli, UniProt P23836)	18.7
